Measured values from different studies.
Several values in a cell are separate wells, animals, samples, runs or records. ± gives the spread as reported.

CCn1cc(-c2cc(Cn3ccnc3)cc3c2CCN([C@H](c2cc(OC)ccn2)C2CC2)C3=O)c(C(F)(F)F)n1
EC50 (SW900; cell growth, inhibitor; 120 h): 8.73 µM

CN(Cc1cnc2nc(N)nc(N)c2n1)c1ccc(C(=O)N[C@@H](CCC(=O)O)C(=O)O)cc1
concentration for maximal inhibition (WA09 MTHFR C677T(+/-) forebrain rosette tissues; single rosette emergence): ~1 µM

Cc1nc(NC(=O)N2CCC[C@H]2C(N)=O)sc1-c1ccnc(C(C)(C)C(F)(F)F)c1
Hill coefficient GR curve (KPL4; CellTiter-Glo; 120 h): 1.41

Cc1cn([C@H]2C[C@H](O)[C@@H](CO)O2)c(=O)nc1N
viability (OCI-Ly1; 1 µM, 120 h): 149%

O=C(COc1ccc(Cl)cc1)NC12CC(c3nnc([C@H]4C[C@@H](OC(F)(F)F)C4)o3)(C1)C2
ATF4 protein level (HEK293 expressing (G4C2)71-GFP; electrochemiluminescence; 1 µM, 2.5 h, C9orf72 repeat expansion): decreased

COc1cc(/C=C/C(=O)N2CCC=CC2=O)cc(OC)c1OC
mRNA expression (MDA-MB-468; qRT-PCR, refers to: OSM-R; 30 µM, 6 h; baseline: time zero): 92.4 ± 18%

C=C1C(=O)O[C@@H]2C[C@@]3(C)CCCC(=C)[C@@H]3C[C@H]12
metabolic activity (COS-7; WST-8; 30 µM, 24 h, 0.1% DMSO, unit not given; baseline: vehicle control): 0.71 ± 0.09

CCn1cc(-c2cc(Cn3ccoc3=N)cc3c2CCN([C@@H](C)c2cc(OC)ccn2)C3=O)c(C(F)(F)F)n1
EC50 (JHH7; cell growth, inhibitor; 120 h): 0.854 µM

CCCCCCCCCc1ccc(OCCOCCOCCOCCOCCOCCOCCOCCOCCO)cc1
EC50 (iPSC-derived cardiomyocytes; concentration-response curve, refers to: MyBP-C/MYH ratio; 24 h): 24.4 µM

O=C(Nc1nnc2n3c(=S)[nH][nH]c3nc(-c3ccc(Cl)cc3)c1-2)c1ccccc1
growth percent (786-0; NCI60 SRB; 10 µM): 72.4%

CC1(C)CCC(CN2CCN(c3ccc(C(=O)NS(=O)(=O)c4ccc(NCC5CCOCC5)c([N+](=O)[O-])c4)c(Oc4cnc5[nH]ccc5c4)c3)CC2)=C(c2ccc(Cl)cc2)C1
early apoptotic cells (THP-1; annexin V/PI flow cytometry, refers to: annexin V+/PI-; 0.4 µM, 24 h): 3.6%

CC[C@@H]1/C=C/C=C/C[C@H](C)[C@@H](O)[C@](C)(O)C(=O)[C@@H](C)[C@H](O)[C@@H](C)C(=O)[C@H](C)[C@@H](O)[C@H](C)/C=C/C(=O)O[C@H]2[C@@H](C)[C@@H](CC1)O[C@@]1(CC[C@@H](C)[C@@H](C[C@H](C)O)O1)[C@@H]2C
oxygen consumption rate (NCI-H292; Seahorse XF24; 1 µM; baseline: control): 25 to 30%

O=C(C[C@@H](C(F)F)n1ccc(F)n1)N1CCC(O)(Cn2cnc3c(cnn3-c3ccc(F)cc3)c2=O)CC1
apoptotic cells (early plus late) (CHP-212 parental (wild-type USP7); annexin V-PI flow cytometry; 1 µM, 48 h): 44.4% and 40.5% and 36.4% and 53.8% and 50.3% and 34.5%

CN(C)c1ccc2nc3ccc(=[N+](C)C)cc-3sc2c1
mIPSC rise time 10-90% (mouse CA1 pyramidal neurons; patch clamp; hippocampal slices; 10 µM): increased

COC(=O)[C@]12CCC(C)(C)C[C@H]1[C@H]1C(=O)C=C3[C@@]4(C)C=C(C#N)C(=O)C(C)(C)[C@@H]4CC[C@@]3(C)[C@]1(C)CC2
point of departure (HepG2; refers to: phospholipidosis; 24 h, distribution mode 1): 0.000851 µM

CC(C)N(CCCNC(=O)Nc1ccc(C(C)(C)C)cc1)C[C@H]1O[C@@H](n2cc(Br)c3c(N)ncnc32)[C@H](O)[C@@H]1O
viability (OCI-Ly1; 0.1 µM, 120 h): 145%

CCn1c(=O)/c(=C2\Sc3cc(Cl)ccc3N2C)s/c1=C\c1scc[n+]1Cc1ccccc1
EC50 (iPSC-derived cardiomyocytes; concentration-response curve, refers to: MyBP-C/MYH ratio; 24 h): 25.5 µM

Nc1ncnc2c1ncn2[C@@H]1O[C@H](CO)[C@@H](O)[C@H]1O
log2 fold change (activated human T cells; refers to: ADP; 30 µM; baseline: DMSO): 0.7 and 0.432 and 0.3

CCN(CCO)CCCC(C)Nc1ccnc2cc(Cl)ccc12 (centres unmarked)
maximal upstroke velocity (hiPSC-derived ventricular cardiomyocytes; action potential, current clamp, externally paced; 10 µM): 19.8 mV/ms and 20.5 mV/ms and 26.6 mV/ms and 23.4 mV/ms and 25.5 mV/ms and 14.8 mV/ms and 15.6 mV/ms and 16.5 mV/ms

O=C(/C=C/N1C[C@H]2C[C@@H]1CN2c1ccccn1)c1ccccc1O
viability (OCI-Ly1; 0.5 µM, 120 h): 50.9%

Cc1ncsc1-c1ccc([C@H](C)NC(=O)[C@H]2C[C@H](O)CN2C(=O)[C@@H](NC(=O)CCCCCCCCCNC(=O)c2ccc3c(c2)[C@H](NC(=O)c2cc(-c4ccc(C(=O)N(C)C)c(O)c4)on2)CC3)C(C)(C)C)cc1
log2 fold change (MV4-11; TMT proteomics, refers to: MLKL protein; concentration not given, 6 h; baseline: DMSO): -0.344

O=C(/C=C/c1ccc(O)cc1)c1ccc(O)cc1O
viability (OCI-Ly1; 0.5 µM, 120 h): 153%

CC(C)C[C@H](NC(=O)C[C@H](O)[C@H](CC(C)C)NC(=O)[C@H](Cc1c[nH]cn1)NC(=O)CNC(=O)[C@@H](NC(=O)[C@H](C)NC(=O)[C@H](Cc1c[nH]c2ccccc12)NC(=O)[C@H](CCC(N)=O)NC(=O)[C@@H](Cc1ccccc1)NC(=O)COCCOCCNC(=O)CCC(C(=O)O)N1CCN(CC(=O)O)CCN(CC(=O)O)CCN(CC(=O)O)CC1)C(C)C)C(N)=O (some centres unmarked) [lutetium-177 labelled]
tissue uptake (BALB/c nu/nu mice, lung; intravenous, 250 pmol, 1 h, added: PA 300 µg): 0.9 ± 0.7 %ID/g

COc1c(O)c(C)cc2c1C(=O)c1c(O)cccc1C2=O
cell viability (HepaRG co-cultured with HK-2; MTT; 133.33 µM, 48 h; baseline: untreated control): 41.9 ± 3.72%

CC(C)(c1ccc(O)cc1)c1ccc(O)cc1
S phase cells (HepG2 spheroids; Hoechst flow cytometry; 0.10 µM, 96 h): 9.61 ± 1.74%

CC(C)n1c(/C=C/C(O)CC(O)CC(=O)O)c(-c2ccc(F)cc2)c2ccccc21 (centres unmarked)
necrotic cells (COS-7; 10 µM, 24 h, 0.1% DMSO, unit not given; baseline: vehicle control): 0.76 ± 0.16

C=C(C)[C@@H](CC=C(C)C)C[C@@]12C[C@@H](CC=C(C)C)C(C)(C)[C@@](CC=C(C)C)(C(=O)C(C(=O)c3ccc(O)c(O)c3)=C1O)C2=O
viability (OCI-Ly1; 0.5 µM, 120 h): 2.09%

Cn1cc(-c2ccc(-c3cncc(Cl)c3N3CCC4(CCNC4=O)CC3)cc2)cn1
log2 fold change (COLO 205; gene expression, microarray, refers to: PNRC1 mRNA; concentration not given, 2 h; baseline: untreated cells): 1.53

O=C(Nc1ccc2c(O)cc(S(=O)(=O)O)cc2c1)Nc1ccc2c(O)cc(S(=O)(=O)O)cc2c1
viability (OCI-Ly1; 0.5 µM, 120 h): 165%

C=C1C(=O)OC2CC1C(OC(C)=O)C/C(C)=C/CC/C(C)=C\CCC2(C)O (centres unmarked)
fitted top MyBP-C level (iPSC-derived cardiomyocytes; concentration-response fit; concentration not given; baseline: vehicle): 101%

[Cl-].[Cl-].[Ru+2].c1cnc2c(c1)ccc1cccnc12.c1cnc2c(c1)ccc1cccnc12.c1csc(-c2ccc(-c3ccc(-c4ccc(-c5nc6c7cccnc7c7ncccc7c6[nH]5)s4)s3)s2)c1
phototherapeutic index (SK-MEL-28; normoxia, added: 523 nm light, 100 J/cm2): ~10

Cc1nn(-c2nc3c(F)cc(F)cc3s2)c(O)c1C(c1ccc(C(F)(F)F)cc1)c1c(C)nn(-c2nc3c(F)cc(F)cc3s2)c1O
inhibition (RAW-ISG; IFN luciferase reporter; 10 µM, added: HT-DNA): 92.6% and 92.2% and 92.4% and 92.1% and 91.8%

COc1cnc2cccc(N3CCc4c(cc(Cn5ccnc5C)cc4-c4cn(C)nc4C(F)(F)F)C3=O)c2c1
EC50 (NCI-H292; cell growth, inhibitor; 120 h): > 30 µM

COc1cc2ncnc(Nc3ccc(Oc4ccccc4)cc3C)c2cc1OC.O=C(O)C(F)(F)F
Bliss synergy score (COLO 205 (BRAF V600E); resazurin; concentration not given, 72 h, added: trametinib; direction not given): -54.3%

CC(=O)c1c(C)cc2cc(O)cc(O[C@@H]3O[C@H](CO)[C@@H](O)[C@H](O)[C@H]3O)c2c1O
cell viability (HepaRG co-cultured with HK-2; MTT; 16.67 µM, 48 h; baseline: untreated control): 113 ± 3.64%

O=c1[nH]nc(OCCCc2ccc(Cl)cc2)c(NCc2cccnc2)c1Br
normalized enrichment score (HEK-293T; RNA-seq GSEA, refers to: Hallmark bile acid metabolism; concentration not given; direction not given): -0.854

CN(C)c1ccc(C(=C2C=CC(=[N+](C)C)C=C2)c2ccc(N(C)C)cc2)cc1
EC50 (iPSC-derived cardiomyocytes; concentration-response curve, refers to: MyBP-C protein level; 24 h): 6.5 µM

O=C(/C=C/C=C/C=C/C1CCCCC1)NC1=C[C@@](O)(/C=C/C=C/C=C/C(=O)NC2=C(O)CCC2=O)[C@@H]2O[C@@H]2C1=O
GI50 (SNU878; cell growth, CellTiter-Glo; 78 h): 26.6 µM

C=Cc1c2[n-]c(c1C)/C=c1\[n-]/c(c(C)c1C=C)=C\c1[n-]c(c(CCC(=O)O)c1C)/C=c1\[n-]c(c(C)c1CCC(=O)O)=C2.[Sn+4]
fold change (SH-SY5Y; RNA-seq, refers to: CEBPD mRNA; 5 µM, 5 h; baseline: untreated cells): 3.61

Cc1nc2cc(N(Cc3ccc(F)cc3)Cc3ccc(F)cc3)ccc2s1
viability (sample A patient iPSC-derived NPCs; MTS; 10 µM, 24 h; baseline: vehicle): 100 ± 1.59%

CCN(CC)Cc1ccc2cc(COC(=O)Nc3ccc(C(=O)NO)cc3)ccc2c1
viability (OCI-Ly1; 0.5 µM, 120 h): 4.12%

FC(F)(F)c1ccc(CN(Cc2ccc(C(F)(F)F)cc2)c2ccc3scnc3c2)cc1
viability (sample A patient iPSC-derived NPCs; MTS; 10 µM, 24 h; baseline: vehicle): 106 ± 2.28%

O=C(COc1cccc2c1C(=O)N(C1CCC(=O)NC1=O)C2=O)NCCOCCOCCNS(=O)(=O)Nc1cccc(-c2cn3cc(C(=O)NC4CCC4)ccc3n2)c1 (centres unmarked)
log2 fold change (MV4-11; TMT proteomics, refers to: ALDOA; whole proteome; 10 µM, 16 h; baseline: DMSO): -0.057

C=CC1=C(C)c2cc3[n-]c(cc4nc(cc5[n-]c(cc1n2)c(C)c5C=C)C(C)=C4CCC(=O)O)c(CCC(=O)O)c3C.[Zn+2]
fold change (SH-SY5Y; RNA-seq, refers to: VCL mRNA; 5 µM, 5 h; baseline: untreated cells): 1.62

A few entries again:
CN(C)c1ccc2nc3ccc(=[N+](C)C)cc-3sc2c1
mIPSC rise time 10-90% (mouse CA1 pyramidal neurons; patch clamp; hippocampal slices; 10 µM): increased

COC(=O)[C@]12CCC(C)(C)C[C@H]1[C@H]1C(=O)C=C3[C@@]4(C)C=C(C#N)C(=O)C(C)(C)[C@@H]4CC[C@@]3(C)[C@]1(C)CC2
point of departure (HepG2; refers to: phospholipidosis; 24 h, distribution mode 1): 0.000851 µM

CC(C)N(CCCNC(=O)Nc1ccc(C(C)(C)C)cc1)C[C@H]1O[C@@H](n2cc(Br)c3c(N)ncnc32)[C@H](O)[C@@H]1O
viability (OCI-Ly1; 0.1 µM, 120 h): 145%

CCn1c(=O)/c(=C2\Sc3cc(Cl)ccc3N2C)s/c1=C\c1scc[n+]1Cc1ccccc1
EC50 (iPSC-derived cardiomyocytes; concentration-response curve, refers to: MyBP-C/MYH ratio; 24 h): 25.5 µM

Nc1ncnc2c1ncn2[C@@H]1O[C@H](CO)[C@@H](O)[C@H]1O
log2 fold change (activated human T cells; refers to: ADP; 30 µM; baseline: DMSO): 0.7 and 0.432 and 0.3
